Experimental data gathered from unrelated publications.
Every numbered part comes from another study and shows a few of its results, in no order.

Series 1
Target: Centromere-binding protein 1, full length, His-tagged (CBF1, Saccharomyces cerevisiae, UniProt P17106, residues 1-351)
Chain of UniProt P17106 (whole entry, looked up): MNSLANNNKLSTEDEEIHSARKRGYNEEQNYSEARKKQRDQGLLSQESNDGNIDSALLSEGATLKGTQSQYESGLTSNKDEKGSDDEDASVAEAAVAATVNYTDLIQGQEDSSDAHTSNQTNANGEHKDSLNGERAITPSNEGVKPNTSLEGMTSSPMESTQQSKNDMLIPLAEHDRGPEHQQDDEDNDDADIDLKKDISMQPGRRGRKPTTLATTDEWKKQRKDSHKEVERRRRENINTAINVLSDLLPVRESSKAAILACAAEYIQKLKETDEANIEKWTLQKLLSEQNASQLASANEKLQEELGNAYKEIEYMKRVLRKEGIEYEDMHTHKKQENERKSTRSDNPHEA
Method: competition protein-binding microarray
Molecule type: double-stranded DNA, one strand shown
Sample: in vitro
Tested at: 2 µM
Setting: whole 60-bp probe, lowest competitor level
With: Pho4 competitor, 0.05 µM
Reading: higher = stronger binding
Sequence	fluorescence intensity
CGTCCTAGTGATTTTCACGTGACATCCATGAGGAAGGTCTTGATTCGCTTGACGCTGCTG	6800 a.u.
CTTGTCATCTCTATTCACATGGGGTGGTATCTGTATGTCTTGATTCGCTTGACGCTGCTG	107 a.u.
ACAGGTATCTGGGGCAACGTGGGCTTAAGATTAGCCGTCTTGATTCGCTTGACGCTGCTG	86.1 a.u.
TCGCGAGAAACGTTACACGTTGTTTGGATGAAAACAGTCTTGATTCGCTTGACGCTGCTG	98.8 a.u.
TTTCTCTCTTCAAGTGACCTGACAGGGCCACAGTGGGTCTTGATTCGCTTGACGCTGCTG	63.9 a.u.
GAAAGCATATCATATCACATGTACAGATTGAGCATAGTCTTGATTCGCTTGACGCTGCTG	1100 a.u.
AAAGCGGTAATTTGGACTGTGGGTGCAGATATCTATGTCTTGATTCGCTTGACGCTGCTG	71.2 a.u.
AAAGCGGTAATTTTTCACGTGATTTCACATATCTATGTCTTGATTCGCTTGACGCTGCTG	4710 a.u.
TCAGAGGTATTCTCTCATGTGGTGAAGTCCATCAATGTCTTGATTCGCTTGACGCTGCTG	71.6 a.u.
TGCGCAACAACTTTTCACGTGCATTTATGTCTAGAAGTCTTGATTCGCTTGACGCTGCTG	1260 a.u.
GCATCAGTCGGTCAACATGCGCAGGATGTTCCGTTTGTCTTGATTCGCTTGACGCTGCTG	81.6 a.u.
CTAAATGGGTAAAAACTCGTGTTTTAGGAAAAAAAAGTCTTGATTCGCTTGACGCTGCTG	136 a.u.
ATTGCATTCTTAAAACACGTGCTTTACCAGTGGGAAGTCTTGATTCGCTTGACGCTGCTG	2520 a.u.
TGCGCAACAACTTTTCACGTGGAATTATGTCTAGAAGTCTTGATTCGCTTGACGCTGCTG	756 a.u.
AAAGCGGTAATTTGGACCGTGGGTGCAGATATCTATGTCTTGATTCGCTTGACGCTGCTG	64.5 a.u.
TGCGCAACAACTTTACACGTGTTTTTATGTCTAGAAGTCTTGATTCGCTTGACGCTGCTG	1870 a.u.
AAATTACTAAGTTGTAACGTGGGTGACGCCGTATGAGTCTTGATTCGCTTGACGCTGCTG	79.1 a.u.
AAATTACTAAGTTGTCCGGTGGGTGACGCCGTATGAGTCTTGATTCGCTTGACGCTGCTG	60.7 a.u.
AAAGGGCGAAGTTACACCGTTTTCAAAGGTGGAGTGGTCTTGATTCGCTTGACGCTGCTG	60.9 a.u.

Series 2
Target: RING finger protein unkempt homolog, zinc fingers 1-6, GST-SBP tag (UNK, Homo sapiens, UniProt Q9C0B0, residues 30-357)
Method: RNA Bind-n-Seq
Molecule type: RNA
Sample: in vitro
Tested at: not given
Setting: RNA with constant flanks, human and mouse sites, ends assumed
Baseline: input RNA pool
Reading: higher = stronger binding
Residues (chain): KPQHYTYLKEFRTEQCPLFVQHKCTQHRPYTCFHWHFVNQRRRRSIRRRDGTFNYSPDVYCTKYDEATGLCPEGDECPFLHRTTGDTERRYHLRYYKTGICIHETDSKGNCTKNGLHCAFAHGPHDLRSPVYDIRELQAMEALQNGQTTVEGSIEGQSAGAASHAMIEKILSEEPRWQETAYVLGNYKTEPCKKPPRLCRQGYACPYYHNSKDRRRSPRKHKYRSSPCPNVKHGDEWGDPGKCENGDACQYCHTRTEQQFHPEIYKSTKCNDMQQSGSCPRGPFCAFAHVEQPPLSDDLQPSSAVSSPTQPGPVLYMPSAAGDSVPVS
Sequence	bound/input enrichment
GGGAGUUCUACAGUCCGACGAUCCCUCCCACCCCAGCUCCUGCAACACAAAUGCCCAGCACACCAGGGUUUGUGGGAUACAAUCCAUACAGUCAUCUCGCCUACAACAACUACAGGCUGGGAGGGAACCCGGGCACCAACAGCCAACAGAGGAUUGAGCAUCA	0.163 ratio
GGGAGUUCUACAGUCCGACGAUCAACUUAAUUACUGGGAUGCAGAGUCCUUACUUUAUCGCCAGCCCGUAGGCAUUUCUGAAGUGCACUUUUUUGAAACAUCAUUUUGCUAACUCUCAGCAGUGUCUAAUUAAACUGAGCAAUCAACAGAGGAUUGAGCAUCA	0.212 ratio
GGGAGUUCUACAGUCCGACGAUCGAAAAAGUGUAGCUCAGACCUGUUUUUAUUUGCUCAAUAACUCGACUCAUUUGUAUCUUUUCAGCACUUGAUGUAAGACUGUUUUGUUUUUAUAAAAUACAUGGGGACAAUGCUUUAAGUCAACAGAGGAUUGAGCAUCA	0.282 ratio
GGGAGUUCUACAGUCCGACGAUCAAUCACUAAACUGUGCCUAAAGAACAUAACUGCCAUAUUAAUGUUUUGGUUUAUAUCCUCUAUAGUAAUAGAAAAACAUUUAAUACUUGUAAUGCUGAUGUGUUAAUUUGAUACCAGUUGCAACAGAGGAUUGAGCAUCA	0.786 ratio
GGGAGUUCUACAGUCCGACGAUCCUGUUGGGAUCUGGGCUUCCUCACUUCUGGAGAAGUGGCCAUCCCAUGCCCACCUGUGCCAUGGAGGAGUGGGCCCUGCCAGCUGCCACAGCUGCAUGACCUGCUUCCCCACCCCACGGUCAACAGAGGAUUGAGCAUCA	0.0396 ratio

Series 3
Target: RNA binding protein fox-1 homolog 2, RRM domain, GST-SBP tag (RBFOX2, Homo sapiens, UniProt O43251-10, residues 100-194)
Method: RNA Bind-n-Seq
Molecule type: RNA
Sample: in vitro
Tested at: 365 nM
Setting: natural RNA segment, single round, ends assumed
Baseline: no-protein control
Reading: higher = stronger binding
Sequence	RBNS enrichment (R)
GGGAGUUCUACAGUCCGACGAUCUGCCACGUUACCUUGAUGCAAAUUUGCCAAAUCUGAUACUGUGAAAAGAUUUGAUAACUUUUCUAAUGCCUGACUAGUAAGUUUUAAAACAUCAUUCUUUAAAAGAAUAGUGGAAUUCUCGGGUGCCAA	0.444
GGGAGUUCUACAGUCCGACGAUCGACUCAGUUAGGAGGCAUAAAUCUGCCCGGAAUAAACUAGGCCAGGAUACAGCCAUGUUUAGUUAAUAAUUUGGUUUUAGAAUUCACACAGGCAGGAUUGGUUUUUUUGUUGGAAUUCUCGGGUGCCAA	0.654
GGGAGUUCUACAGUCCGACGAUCGAUGGACAUGAUAAACCAGUUCUCAGUAGGAGGAAGUAGGACCUUCGAGAGUGGGAGUCUGGUACACCCAUUGGAACAAGUCCUUCGAUAAAUAAAACAGUUAUCACAUUUGGAAUUCUCGGGUGCCAA	0.362
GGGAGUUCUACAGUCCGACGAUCCCAAAGUUUCCAUGGUCCUAUGGGAUAGCCUUCAGCCUCUGGAGACCCAGAGCUUGCCUGCCAGGGCUUGGUUCUCCAUUUCCACUGCUGACAUUUGAUUUCCAGUGUAUUGGAAUUCUCGGGUGCCAA	1.57
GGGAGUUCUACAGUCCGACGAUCAGUGCUUCAAAUACUUAGAAUUCUAAUAUGAGAGAUAGUUUAAUAUUCUGGAAUAGAGAGUAUUUUAAAUUGAAAUGACCAAAUUCGAUUUAAAACAAACACAUAACAAUUGGAAUUCUCGGGUGCCAA	0.593
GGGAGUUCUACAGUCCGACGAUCCUACAUGGCGCUGAGCCCCAACUCCUGUCCUGUGGUGUGUGUCACACGUGUUUUUACUGACUGAAGCCAACCAUCCUGAACUGUCAUGCAGAGAAUUCUUGCAGGAAUCAUGGAAUUCUCGGGUGCCAA	0.541
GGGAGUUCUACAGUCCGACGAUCCCUCUGAAGUUGAUUGUCUUAUAUUCCCGCUAUGAGAUAUCUCAAAGAUUCUUAAUCAAGAGUUUCAGAGUUUAGAAACUCGGAUGUUGGGCAAGUUAGGAAAUAUUCCAUGGAAUUCUCGGGUGCCAA	0.473
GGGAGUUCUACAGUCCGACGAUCACCUUCUUAUUUAUGUAACUGGCUUUCAUUUAGAUUGUAAGUUAUGGACAUGAUUUGAGAUGUAGAAGCCAUUUUUUAUUAAAUAAAAUGCUUAUUUUAGGCUCCGUCCCUGGAAUUCUCGGGUGCCAA	0.404

Series 4
Target: Ras GTPase-activating protein-binding protein 1, full length (G3BP1, Homo sapiens, UniProt Q13283)
Chain of UniProt Q13283 (whole entry, looked up): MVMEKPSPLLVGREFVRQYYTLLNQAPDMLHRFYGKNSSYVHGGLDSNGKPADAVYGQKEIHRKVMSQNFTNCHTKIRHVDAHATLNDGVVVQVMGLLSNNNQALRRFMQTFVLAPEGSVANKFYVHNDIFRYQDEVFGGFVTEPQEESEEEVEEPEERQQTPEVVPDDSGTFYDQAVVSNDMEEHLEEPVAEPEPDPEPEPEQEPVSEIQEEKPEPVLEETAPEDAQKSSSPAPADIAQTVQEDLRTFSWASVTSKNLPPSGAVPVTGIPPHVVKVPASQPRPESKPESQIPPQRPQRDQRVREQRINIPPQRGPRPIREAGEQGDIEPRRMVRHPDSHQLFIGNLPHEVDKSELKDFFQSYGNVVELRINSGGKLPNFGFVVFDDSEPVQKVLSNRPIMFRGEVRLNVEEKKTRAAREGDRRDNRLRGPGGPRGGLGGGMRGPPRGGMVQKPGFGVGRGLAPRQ
Method: RNA Bind-n-Seq
Molecule type: RNA
Sample: in vitro
Tested at: 200 nM
Setting: whole 134-nt RNA, ends assumed
With: 150 mM KCl
Baseline: input library
Reading: higher = stronger binding
Sequence	log2 enrichment
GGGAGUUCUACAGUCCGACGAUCUGUUUUAAGGUUGCCAACUUUGCAACAAUGGAAGAUGAAGAAGAGCUAGAAGAGCGUCCUCACAAGGACUGGGAUGAGAUCAUUCCAGAGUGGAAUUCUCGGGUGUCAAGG	-1.26
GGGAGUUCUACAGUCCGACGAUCUCAAGUCCUGUGCUACACAUCGUAUGUACCGAAUCGGGCCGGGGCCGGGGCCGGGAAAGUAUUAUGUUACGCCGUUCGGAUCUGCACUUCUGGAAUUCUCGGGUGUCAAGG	-0.796
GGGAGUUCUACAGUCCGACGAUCAAGUCCUGUGCUACACAUCGUAUGUACCGAAUCGGGAAAGGGAAAAAAAGGGUGGGAAAGUAUUAUGUUACGCCGUUCGGAUCUGCACUUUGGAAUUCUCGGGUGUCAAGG	0.23
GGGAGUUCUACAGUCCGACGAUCCACAGACAACACGCACCCACACAGACACAGAGGGAAGGGGUUGGGAUGGGGACAGGAUGCACAGCAGGGCGGGGUAGGACCCCAGCCCCUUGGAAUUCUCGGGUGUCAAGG	1.78
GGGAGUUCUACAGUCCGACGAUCACCAUGCAGGUGGGCAUCUUUGGGAAGUGGGGCAAGGGGGGGAUAGGGAGGGGGGUAACACUUUUGGAACAGGUGGUCCCAGGUCGUUUCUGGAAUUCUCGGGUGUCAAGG	1.63
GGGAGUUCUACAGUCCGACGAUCUCAAGUCCUGUGCUACACAUCGUAUGUACCGAAUCGGGGAAGGGAAGGGAAGGGGAAAGUAUUAUGUUACGCCGUUCGGAUCUGCACUUCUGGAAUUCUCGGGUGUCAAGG	1.01
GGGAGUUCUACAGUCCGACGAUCCUCAAGUCCUGUGCUACACAUCGUAUGUACCGAAUCGGGAGGGUUUGGGAGGGAAAGUAUUAUGUUACGCCGUUCGGAUCUGCACUUCCAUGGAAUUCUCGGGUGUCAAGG	1.29
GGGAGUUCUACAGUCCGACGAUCUAACUUUAGAGGAGGAUCUGAUGGAUAUGGCAGUGGACGUGGAUUUGGGGAUGGCUAUAAUGGGUAUGGAGGAGGACCUGGUGGUGGCAAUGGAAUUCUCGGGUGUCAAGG	0.205
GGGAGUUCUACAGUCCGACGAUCCCUGUGCUACACAUCGUAUGUACCGAAUCGGGCCCCCCGGGCCCCCCGGGGCCCCCCGGGGAAAGUAUUAUGUUACGCCGUUCGGAUCUGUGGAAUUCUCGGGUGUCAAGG	-0.722

Some of these lines once more (series 1):
Sequence	fluorescence intensity
AAATTACTAAGTTGTCCGGTGGGTGACGCCGTATGAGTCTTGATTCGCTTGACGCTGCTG	60.7 a.u.
TCAGAGGTATTCTCTCATGTGGTGAAGTCCATCAATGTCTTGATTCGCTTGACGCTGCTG	71.6 a.u.
